Measurements gathered from unrelated publications.
Compare with care: the assays were run in different laboratories. Numbers after ± are the reported error.
Chain of UniProt Q96NX5 (whole entry, looked up): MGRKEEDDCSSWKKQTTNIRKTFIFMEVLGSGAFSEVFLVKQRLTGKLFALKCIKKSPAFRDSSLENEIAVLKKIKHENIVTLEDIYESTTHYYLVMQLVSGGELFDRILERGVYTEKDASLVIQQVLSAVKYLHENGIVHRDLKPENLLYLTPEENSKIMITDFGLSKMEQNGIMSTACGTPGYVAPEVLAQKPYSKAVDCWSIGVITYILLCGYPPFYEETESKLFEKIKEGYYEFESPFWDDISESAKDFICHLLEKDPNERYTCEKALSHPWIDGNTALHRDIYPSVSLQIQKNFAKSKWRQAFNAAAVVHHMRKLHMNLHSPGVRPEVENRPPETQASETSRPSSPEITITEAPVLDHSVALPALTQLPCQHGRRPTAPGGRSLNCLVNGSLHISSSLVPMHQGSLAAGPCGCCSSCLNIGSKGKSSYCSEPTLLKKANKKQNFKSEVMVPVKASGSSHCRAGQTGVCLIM
Chain of UniProt P35372 (whole entry, looked up): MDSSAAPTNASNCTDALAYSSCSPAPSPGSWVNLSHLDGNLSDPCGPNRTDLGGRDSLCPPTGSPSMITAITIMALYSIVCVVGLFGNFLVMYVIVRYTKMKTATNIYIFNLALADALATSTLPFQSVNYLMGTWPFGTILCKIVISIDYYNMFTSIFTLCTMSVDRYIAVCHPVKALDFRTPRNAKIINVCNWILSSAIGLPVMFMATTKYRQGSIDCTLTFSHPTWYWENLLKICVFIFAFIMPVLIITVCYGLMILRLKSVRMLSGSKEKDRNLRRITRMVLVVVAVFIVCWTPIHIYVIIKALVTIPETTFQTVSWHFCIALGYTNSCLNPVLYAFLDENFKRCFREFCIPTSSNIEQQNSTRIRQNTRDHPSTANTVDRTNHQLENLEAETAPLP
Chain of UniProt O43194 (whole entry, looked up): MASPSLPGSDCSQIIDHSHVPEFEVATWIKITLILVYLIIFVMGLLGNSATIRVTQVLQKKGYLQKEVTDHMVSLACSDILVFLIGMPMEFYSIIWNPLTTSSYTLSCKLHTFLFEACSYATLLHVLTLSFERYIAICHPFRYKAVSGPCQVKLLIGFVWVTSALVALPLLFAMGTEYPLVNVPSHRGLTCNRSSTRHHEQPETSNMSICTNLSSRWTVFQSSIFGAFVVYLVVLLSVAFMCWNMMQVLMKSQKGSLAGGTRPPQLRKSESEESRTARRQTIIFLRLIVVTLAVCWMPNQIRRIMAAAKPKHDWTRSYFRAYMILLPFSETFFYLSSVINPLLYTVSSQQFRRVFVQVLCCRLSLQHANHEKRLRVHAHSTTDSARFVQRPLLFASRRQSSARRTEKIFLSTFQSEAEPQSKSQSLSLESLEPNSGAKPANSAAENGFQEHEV
Chain of UniProt P50613 (whole entry, looked up): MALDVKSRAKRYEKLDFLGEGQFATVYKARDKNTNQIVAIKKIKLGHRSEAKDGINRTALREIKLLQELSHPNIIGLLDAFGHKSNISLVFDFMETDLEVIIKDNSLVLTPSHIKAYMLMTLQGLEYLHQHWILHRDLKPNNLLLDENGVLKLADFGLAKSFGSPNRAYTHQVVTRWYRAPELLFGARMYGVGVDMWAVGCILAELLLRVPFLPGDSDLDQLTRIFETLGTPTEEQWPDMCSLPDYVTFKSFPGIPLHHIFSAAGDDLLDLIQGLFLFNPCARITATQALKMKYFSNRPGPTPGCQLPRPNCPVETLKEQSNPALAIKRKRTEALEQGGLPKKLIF
Chain of UniProt Q5VWZ2 (whole entry, looked up): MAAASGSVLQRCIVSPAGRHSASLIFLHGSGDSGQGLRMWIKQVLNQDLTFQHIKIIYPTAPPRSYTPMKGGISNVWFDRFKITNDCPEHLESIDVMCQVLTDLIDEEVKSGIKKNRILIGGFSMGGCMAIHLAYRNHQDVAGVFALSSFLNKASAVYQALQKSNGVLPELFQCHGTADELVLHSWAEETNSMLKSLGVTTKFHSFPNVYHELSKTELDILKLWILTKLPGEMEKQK
Chain of UniProt Q05513 (whole entry, looked up): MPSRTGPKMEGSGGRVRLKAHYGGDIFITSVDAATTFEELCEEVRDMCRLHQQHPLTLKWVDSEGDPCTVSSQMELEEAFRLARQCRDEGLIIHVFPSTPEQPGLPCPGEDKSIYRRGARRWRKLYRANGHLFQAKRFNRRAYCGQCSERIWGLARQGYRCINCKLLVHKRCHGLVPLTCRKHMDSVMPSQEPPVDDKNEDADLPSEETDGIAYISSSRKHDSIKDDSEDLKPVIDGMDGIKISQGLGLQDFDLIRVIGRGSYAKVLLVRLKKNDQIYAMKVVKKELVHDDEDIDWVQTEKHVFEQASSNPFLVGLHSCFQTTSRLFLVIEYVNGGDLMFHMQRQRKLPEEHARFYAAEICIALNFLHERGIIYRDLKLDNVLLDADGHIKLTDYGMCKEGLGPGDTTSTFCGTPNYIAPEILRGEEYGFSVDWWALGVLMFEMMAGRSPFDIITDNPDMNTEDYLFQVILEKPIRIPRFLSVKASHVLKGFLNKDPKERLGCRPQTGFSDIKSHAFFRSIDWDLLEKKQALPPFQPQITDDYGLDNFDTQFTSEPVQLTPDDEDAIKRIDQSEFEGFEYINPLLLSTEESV

| SMILES | tested on | assay | system | setting | how to read | endpoint | value |
| --- | --- | --- | --- | --- | --- | --- | --- |
| OC[C@H]1O[C@@H](n2ccc3c(SCc4ccc(Cl)cc4Cl)ncnc32)[C@H](O)[C@@H]1O | Toxoplasma gondii | [3H]uracil incorporation | human fibroblasts, adenosine kinase deficient | 50 µM | – | survival | 100% |
| C[C@H]1CN(c2n[nH]c3nc(N[C@H]4CC[C@H](NS(=O)(=O)CCC(F)(F)F)CC4)ncc23)CCO1 | CDK7 (Homo sapiens, UniProt P50613) | Kinobeads competition | HEK293, K562, placenta lysate | 0.032 µM, unit not given | reference: vehicle | remaining binding | 0.93 |
| COc1cc(Nc2ncc(F)c(Nc3ccc4c(n3)NC(=O)C(C)(C)O4)n2)cc(OC)c1OC | DRD5 (Homo sapiens, UniProt P21918) | – | – | – | – | IC50 | > 10 µM |
| O=C(c1ccc(Cl)cc1)N1CCN2C(=O)N(OC(=O)N3CCOc4ccccc43)C(=O)C2C1 (stereo not shown) | LYPLAL1 (Homo sapiens, UniProt Q5VWZ2) | enzyme activity, inhibitor, MS-based ABPP | SW-620 conditioned medium | 10 µM, 1 h, 37 °C | reference: compound over DMSO, lower = stronger inhibition | median ratio | 1.17 |
| COc1ccc(N2C(=O)N(c3c(C)cccc3Cl)Cc3cnc(Nc4ccc(C5CCN(C)CC5)cc4OC)nc32)nc1 | PRKCZ (Homo sapiens, UniProt Q05513) | kinase activity, inhibitor | – | 0.5 µM, kinase PKC-ZETA | – | inhibition | 1.27% |
| OC[C@H]1O[C@@H](n2ccc3c(SCc4ccc(F)cc4F)ncnc32)[C@H](O)[C@@H]1O | Toxoplasma gondii | [3H]uracil incorporation | human fibroblasts, adenosine kinase deficient | 50 µM | – | survival | 100% |
| COc1cc2c(Oc3ccc4[nH]c(C)cc4c3F)ccnc2cc1OCC1(N)CC1 | – | – | paediatric recurrent refractory sarcoma | concentration not given, whole group | – | grade 1 or 2 Diarrhoea | 41.2% |
| CC[C@H](C)[C@H](NC(=O)[C@H](Cc1ccccc1)NC(=O)[C@H](CCC(=O)O)NC(=O)[C@H](CCCNC(=N)N)NC(=O)[C@H](C)NC(=O)[C@H](C)NC(=O)[C@H](CCC(N)=O)NC(=O)[C@H](CCC(=O)O)NC(=O)[C@H](CCC(=O)O)NC(=O)[C@H](CC(C)C)NC(=O)[C@H](Cc1ccc(O)cc1)NC(=O)[C@H](CO)NC(=O)[C@H](CO)NC(=O)[C@@H](NC(=O)[C@H](CC(=O)O)NC(=O)[C@H](CO)NC(=O)[C@@H](NC(=O)[C@H](Cc1ccccc1)NC(=O)[C@@H](NC(=O)CNC(=O)[C@H](CCC(=O)O)NC(=O)[C@H](C)NC(=O)CCc1c[nH]cn1)[C@@H](C)O)[C@@H](C)O)C(C)C)C(=O)N[C@@H](C)C(=O)N[C@@H](Cc1c[nH]c2ccccc12)C(=O)N[C@@H](CC(C)C)C(=O)N[C@H](C(=O)N[C@@H](CCCNC(=N)N)C(=O)NCC(=O)N[C@@H](CCCNC(=N)N)C(=O)N[C@@H](CCCCNC(=O)COCCOCCNC(=O)COCCOCCNC(=O)CC[C@H](NC(=O)CCCCCCCCCCCCCCCCC(=O)O)C(=O)O)C(=O)NCC(=O)NCC(=O)N[C@@H](CO)C(=O)N[C@@H](CCCCNc1c(NCCCCCN(O)C(=O)CCC(=O)NCCCCCN(O)C(=O)CCC(=O)NCCCCCN(O)C(C)=O)c(=O)c1=O)C(=O)O)C(C)C [zirconium-89 labelled] | – | – | rat, femur | intravenous, 3 nmol/kg, 72 h | – | tissue uptake | 0.14 %ID/g |
| [2H]c1c([2H])c([C@]2([2H])CCCN2C(=O)C(C)(C)Oc2ccc3cn[nH]c3c2)c([2H])c([2H])c1C([2H])([2H])[2H] | CAMK1G (Homo sapiens, UniProt Q96NX5) | KINOMEscan | – | 1 µM | reference: DMSO control | remaining binding | 92% |
| CN1CC[C@@H](c2c(O)cc(O)c3c(=O)cc(-c4ccc(C(F)(F)F)cc4Cl)oc23)[C@@H]1CO | – | measured: Pyrexia | B-cell malignancies | oral, 100 mg, intermittent dosing | – | patients with adverse event | 0% |
| COc1ccc2c3c1O[C@H]1C[C@@H](O)C=C[C@@]31CCNC2 | Leucojum aestivum | N-methylation of galanthamine, substrate, LC-MS/MS | – | with: SAM 2 mM | – | Km | 353 ± 28.5 µM |
| OC[C@H]1O[C@@H](n2ccc3c(SCc4ccc(Cl)c(Cl)c4)ncnc32)[C@H](O)[C@@H]1O | Toxoplasma gondii | [3H]uracil incorporation | human fibroblasts, adenosine kinase deficient | 5 µM | – | survival | 100% |
| CC[C@H](C)[C@H](NC(=O)CNC(=O)[C@@H](N)CCCCN)C(=O)N[C@@H](CC(C)C)C(=O)N[C@@H](CCCCN)C(=O)N[C@@H](CCCNC(=N)N)C(=O)N[C@@H](CCC(=O)O)C(=O)N[C@@H](CCCCN)C(=O)N[C@@H](CCCNC(=N)N)C(=O)N[C@@H](CC(C)C)C(=O)N[C@@H](CCCNC(=N)N)C(=O)N[C@@H](CCCNC(=N)N)C(=O)N[C@@H](CCCCN)C(=O)N[C@@H](CC(N)=O)C(=O)N[C@H](C(=O)N[C@@H](Cc1c[nH]cn1)C(=O)N[C@@H](Cc1c[nH]c2ccccc12)C(=O)N1CCC[C@H]1C(=O)N[C@@H](CCC(=O)O)C(=O)N[C@@H](CCC(=O)O)C(=O)NCC(=O)N[C@@H](CCCCN)C(=O)N[C@@H](CC(C)C)C(=O)N[C@@H](CCCNC(=N)N)C(=O)N[C@@H](CCC(=O)O)C(=O)N[C@@H](Cc1ccccc1)C(=O)N[C@@H](Cc1ccccc1)C(=O)N[C@@H](Cc1ccccc1)C(=O)N[C@@H](Cc1ccccc1)C(=O)N[C@@H](CCC(=O)O)C(=O)N[C@@H](CC(C)C)C(=O)N[C@@H](CC(=O)O)C(=O)N[C@@H](CCC(=O)O)C(=O)N[C@@H](C)C(=O)N[C@@H](CCC(=O)O)C(=O)N[C@@H](CCCNC(=N)N)C(=O)N[C@H](C(=O)N[C@@H](CC(N)=O)C(=O)N[C@H](C(=O)O)C(C)C)C(C)C)C(C)C | HeLa and HEK-293T cells | phosphatase bead binding, competitive inhibitor, PIB pulldown iBAQ LC-MS/MS, measured: FECH | – | concentration not given | reference: untreated control | log2 fold change | 0.32 |
| Oc1ccc2c3c1O[C@H]1[C@@H](O)CC[C@@]4(O)[C@@H](C2)N(CC2CCC2)CC[C@]314 | GPR39 (Homo sapiens, UniProt O43194) | β-arrestin recruitment, TANGO luminescence | – | concentration not given | reference: basal luminescence | log2 fold change | 0.679 |
| Cc1ccc(CSc2ncnc3c2ccn3[C@@H]2O[C@H](CO)[C@@H](O)[C@H]2O)cc1 | Toxoplasma gondii | [3H]uracil incorporation | human fibroblasts, adenosine kinase deficient | 25 µM | – | survival | 100% |
| CC[C@H](C)[C@@H]1NC(=O)[C@@H]2CCCN2C(=O)[C@H](CC(C)C)NC(=O)[C@H](CC(C)C)NC(=O)CNC(=O)[C@@H](NC(=O)[C@@H](NC(=O)[C@H](CC(=O)O)NC(=O)CNC(=O)[C@@H](NC(=O)[C@H](C)NC(=O)CNC(=O)[C@H](CCCCN)NC(=O)[C@H](CC(C)C)NC(=O)[C@H](CC(C)C)NC(=O)[C@H](CCCCN)NC(=O)CNC(=O)[C@@H](NC(=O)[C@@H](N)CC(C)C)C(C)C)C(C)C)C(C)C)CSSC[C@@H](C(=O)O)NC1=O | – | RNA-seq, measured: Mapkapk5 | mouse, traumatic brain injury model, frontal cortex and hippocampus | dose not given | reference: TBI alone | log2 fold change | -1.23 |
| CN1CC[C@]2(C)c3cc(OC(=O)Nc4ccccc4)ccc3N(C)[C@H]12 | human nicotinic α4β4 receptor | radioligand binding | – | 10 µM, with: [3H]epibatidine | – | inhibition | 4.7% |
| CNC1(c2ccccc2Cl)CCCCC1=O (racemic) | OPRM1 (Homo sapiens, UniProt P35372) | radioligand binding, agonist, radioligand displacement | – | 30 µM | – | inhibition | 69% |
| C[C@@H](O)[C@@H](CO)NC(=O)[C@@H](CCCNC(=N)N)NC(=O)[C@@H]1CCCN1C(=O)[C@@H]1CSSC[C@H](NC(=O)[C@H](Cc2ccccc2)NC(=O)CN2CCN(CC(=O)O)CCN(CC(=O)O)CCN(CC(=O)O)CC2)C(=O)N[C@@H](Cc2ccc(O)cc2)C(=O)N[C@@H](Cc2ccccc2)C(=O)N[C@@H](CCC(N)=O)C(=O)N[C@@H](CC(N)=O)C(=O)N1 [gallium-68 labelled] | – | – | Wistar rat, adrenals | intravenous, 8 MBq, 120 min, group mean | – | tissue uptake | 0.07 %ID/g |

A few entries again:
| SMILES | tested on | assay | system | setting | how to read | endpoint | value |
| --- | --- | --- | --- | --- | --- | --- | --- |
| COc1cc(Nc2ncc(F)c(Nc3ccc4c(n3)NC(=O)C(C)(C)O4)n2)cc(OC)c1OC | DRD5 (Homo sapiens, UniProt P21918) | – | – | – | – | IC50 | > 10 µM |
| OC[C@H]1O[C@@H](n2ccc3c(SCc4ccc(F)cc4F)ncnc32)[C@H](O)[C@@H]1O | Toxoplasma gondii | [3H]uracil incorporation | human fibroblasts, adenosine kinase deficient | 50 µM | – | survival | 100% |
